Literature values that unrelated publications cite.
Protocols differ between the studies behind these lines.
Chain of UniProt P0AES9 (whole entry, looked up): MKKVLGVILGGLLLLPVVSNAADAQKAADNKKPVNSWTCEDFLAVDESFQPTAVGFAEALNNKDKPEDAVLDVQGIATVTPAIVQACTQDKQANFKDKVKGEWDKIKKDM
Chain of UniProt P00698 (whole entry, looked up): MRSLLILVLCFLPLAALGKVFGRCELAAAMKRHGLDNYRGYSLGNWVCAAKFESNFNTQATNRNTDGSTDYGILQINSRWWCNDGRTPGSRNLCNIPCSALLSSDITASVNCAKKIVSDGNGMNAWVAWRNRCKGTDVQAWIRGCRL
Chain of UniProt P41149 (whole entry, looked up): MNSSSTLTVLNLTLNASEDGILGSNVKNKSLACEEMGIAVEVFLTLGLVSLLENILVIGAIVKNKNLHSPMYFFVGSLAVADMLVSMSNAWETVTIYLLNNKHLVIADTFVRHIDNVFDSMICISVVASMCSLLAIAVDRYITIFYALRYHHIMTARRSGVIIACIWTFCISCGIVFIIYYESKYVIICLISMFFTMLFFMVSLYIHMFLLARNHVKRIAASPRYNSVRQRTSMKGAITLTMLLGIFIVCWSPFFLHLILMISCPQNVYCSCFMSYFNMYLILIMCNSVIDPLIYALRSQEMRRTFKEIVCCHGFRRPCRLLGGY

| Molecule | tested on | test | system | setting | measurement | value |
| --- | --- | --- | --- | --- | --- | --- |
| insulin glulisine |  | refers to: total insulin | human | subcutaneous abdomen, 0.2 U/kg, dose-adjusted from 0.1 U/kg | AUC | 2.18 nM·h |
| hdeA mature protein (Escherichia coli, UniProt P0AES9) |  | NMR, refers to: Glu26 |  | 298 K, numbering of the source | pKa | 4.57 |
| CVRLHESCLGQQVPCCDPCATCYCRFFNAFCYCR (agouti-related protein (87–120); sequence looked up) | Melanocortin receptor 5 (Mus musculus, UniProt P41149) | reporter gene, agonist, beta-galactosidase reporter | peptide |  | EC50 | > 100000 nM |
| SGVENPGGYCL (sequence looked up) | H-2 class I histocompatibility antigen, D-B alpha chain, 14 (H2-D1, Mus musculus, UniProt P01899) | binding, competitor | peptide | purified MHC class I D allele, with: radiolabelled standard peptide | IC50 | 414 nM |
| LYZ (Gallus gallus, UniProt P00698) |  | NMR, refers to: Asp18 |  | NaCl 100 mM, numbering of the source | pKa | 2.8 |

Excerpt of the above:
| Molecule | tested on | test | system | setting | measurement | value |
| --- | --- | --- | --- | --- | --- | --- |
| LYZ (Gallus gallus, UniProt P00698) |  | NMR, refers to: Asp18 |  | NaCl 100 mM, numbering of the source | pKa | 2.8 |
